# Results collected from several papers.
# Parts stem from different laboratories: compare values within a part only.

# Sample 1
# Target: Centromere-binding protein 1, full length, N-terminal tag (CBF1, Saccharomyces cerevisiae, UniProt P17106, residues 1-351)
# UniProt P17106, sequence (whole entry, looked up): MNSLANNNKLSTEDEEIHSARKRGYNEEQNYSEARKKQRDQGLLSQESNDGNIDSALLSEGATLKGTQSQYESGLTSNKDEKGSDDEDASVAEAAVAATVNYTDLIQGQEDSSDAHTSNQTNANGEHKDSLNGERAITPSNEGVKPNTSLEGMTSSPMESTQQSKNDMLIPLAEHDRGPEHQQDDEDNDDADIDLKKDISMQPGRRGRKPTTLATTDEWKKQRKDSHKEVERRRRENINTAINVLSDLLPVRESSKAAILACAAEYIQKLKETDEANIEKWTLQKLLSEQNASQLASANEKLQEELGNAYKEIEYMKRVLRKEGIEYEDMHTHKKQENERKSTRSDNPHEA
# Technique: protein-binding microarray
# Form: double-stranded DNA, one strand shown
# Medium: in vitro
# Concentration: 0.8 µM
# Notes: whole 60-bp probe, no competitor
# Direction: higher = stronger binding
Oligonucleotide,fluorescence intensity [a.u.]
CTACTTCAAAAATGATACGTGCCATTTGATGGTTTCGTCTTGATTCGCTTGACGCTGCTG,852
GAAAGAAAAAAAGATCACGCGACTCTTGCCGGATAGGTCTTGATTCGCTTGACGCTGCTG,3750
CCTAACTACTATACAGGTATCACATAGCTTCGTACAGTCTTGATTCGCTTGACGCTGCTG,526
GAACGTCAACATTCAGTGATGATGATCGTTCGGTAGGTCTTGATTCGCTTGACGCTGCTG,496
GAATAAAAATGTTCACGTGTGACTGCTCCATTTTAGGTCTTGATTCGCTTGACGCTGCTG,3740
GAACTAAAGGAGGTGCACGCATTATGGAGACCATAGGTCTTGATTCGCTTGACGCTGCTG,535
TGTACGAAGCTATATCACGTTTTTATAGTAGTTAGGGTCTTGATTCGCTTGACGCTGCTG,1500
CTAGCACTTCGTAGATTCATCATGTTCTATACGTTCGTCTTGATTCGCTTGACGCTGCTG,528

# Sample 2
# Target: Interferon regulatory factor 5, full length, phosphomimetic (IRF5, Homo sapiens, UniProt Q13568-2, residues 1-514, S451D/S453D/S456D/S462D)
# Technique: protein-binding microarray
# Form: double-stranded DNA, one strand shown
# Medium: in vitro
# Concentration: 940 nM top
# Notes: 60-bp whole probe
# Added: salmon DNA 0.4 mg/ml
# Baseline: random background probes
# Direction: higher = stronger binding
# Constant ends, left off below: GCCTAGCAC … GTCTTGATTCGCTTGACGCTGCTG
Oligonucleotide,fitted relative affinity [z-score]
TCACTCTGCTCTTTTCAAACTGTGCTA,1.28
TGAGATCTCAGTCTCGATTAGTGCTAG,3.24
CCCTAGTTGTGTCTTGCCATGTGCTAG,0.371
GACGGTCTCGGTCTCGGAACGTGCTAG,4.3
GCATTTTTCTAATTTACTTTGTGCTAG,1.32
GACGGACGGCTTATCCTGACGTGCTAG,-0.537
TCACGAGTCCCTATCTCACTGTGCTAG,0.136
CATTGCCTGTTTTTCCCCTGGTGCTAG,1.02

# Sample 3
# Target: Transcription factor Sp1 (SP1, Homo sapiens, UniProt P08047, residues 1-785, full length assumed)
# UniProt P08047, sequence (whole entry, looked up): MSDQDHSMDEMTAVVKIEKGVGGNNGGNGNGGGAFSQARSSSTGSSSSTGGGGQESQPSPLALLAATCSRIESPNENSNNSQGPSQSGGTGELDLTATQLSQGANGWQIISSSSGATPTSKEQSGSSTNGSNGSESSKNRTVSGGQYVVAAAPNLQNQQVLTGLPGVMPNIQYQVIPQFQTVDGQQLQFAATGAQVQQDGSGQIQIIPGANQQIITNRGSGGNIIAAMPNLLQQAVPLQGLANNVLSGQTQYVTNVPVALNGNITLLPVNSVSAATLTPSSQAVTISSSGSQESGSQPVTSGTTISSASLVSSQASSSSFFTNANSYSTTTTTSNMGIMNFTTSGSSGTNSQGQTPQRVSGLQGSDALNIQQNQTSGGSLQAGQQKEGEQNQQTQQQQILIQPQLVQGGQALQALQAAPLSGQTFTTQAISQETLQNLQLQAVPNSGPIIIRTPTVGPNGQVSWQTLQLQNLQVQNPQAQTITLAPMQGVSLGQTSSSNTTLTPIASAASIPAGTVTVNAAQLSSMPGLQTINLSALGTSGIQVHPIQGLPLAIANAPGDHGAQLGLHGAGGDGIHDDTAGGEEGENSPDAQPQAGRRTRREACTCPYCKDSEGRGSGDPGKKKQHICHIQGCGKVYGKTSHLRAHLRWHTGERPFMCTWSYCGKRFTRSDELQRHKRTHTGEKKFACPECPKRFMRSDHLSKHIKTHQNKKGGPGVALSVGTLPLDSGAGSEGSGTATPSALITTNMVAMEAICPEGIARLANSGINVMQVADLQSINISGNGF
# Technique: protein-binding microarray
# Form: double-stranded DNA, one strand shown
# Medium: in vitro
# Concentration: not given
# Notes: k-mer, scored over probes, only values ≥0.25
# Direction: higher = stronger binding
Oligonucleotide,E-score
AGGGGCAT,0.265
ATATTAGG,0.262
CCTCCCCA,0.463
CCGCCCTA,0.266

# Sample 4
# Cell line: HEK-293T/ACE2
# Concentration: concentration not given
# Time: 16 (unit not given)
# Baseline: vehicle
SMILES,viability
COc1cccc2c1C(=O)c1c(O)c3c(c(O)c1C2=O)C[C@@](O)(C(C)=O)C[C@@H]3O[C@H]1C[C@H](N)[C@H](O)[C@H](C)O1,75.6%
CC[C@@H]([C@H](C)O)n1ncn(-c2ccc(N3CCN(c4ccc(OC[C@@H]5CO[C@@](Cn6cncn6)(c6ccc(F)cc6F)C5)cc4)CC3)cc2)c1=O,98.7%
CCCCCCCC(=O)N[C@H](CN1CCCC1)[C@H](O)c1ccc2c(c1)OCCO2,94.5%

# Sample 5
# Target: Replicase polyprotein 1ab, polymerase (rep, Severe acute respiratory syndrome coronavirus 2, UniProt P0DTD1)
# Read-out: enzyme activity
# Action: inhibitor
# Concentration: 20 µM
Compound,inhibition
CC[C@H](C)C(=O)O[C@H]1C[C@@H](C)C=C2C=C[C@H](C)[C@H](CC[C@@H]3C[C@@H](O)CC(=O)O3)[C@H]21,-5.67%
CC(C)(C)c1cc(C=C(C#N)C#N)cc(C(C)(C)C)c1O,-1.23%
CN1CCN(CC/C=C2/c3ccccc3Sc3ccc(S(=O)(=O)N(C)C)cc32)CC1,1.95%
NC(N)=Nc1ccc(Cl)cc1,12.7%
CC(C)[C@H]1c2ccc(F)cc2CC[C@@]1(CCN(C)CCCc1nc2ccccc2[nH]1)OC(=O)C1CC1,0.28%
CCOC(=O)c1ccc(NC2CCCCC2)c(N)c1,-3.16%
O=C1OC2(c3ccc(O)cc3Oc3cc(O)ccc32)c2ccccc21,236%
CC(C)(C)c1ccc(C(O)CCCN2CCC(C(O)(c3ccccc3)c3ccccc3)CC2)cc1 (stereo not shown),-0.39%
Cc1ccsc1C(=CCCN1CCC[C@@H](C(=O)O)C1)c1sccc1C,-1.88%
CC(C)=CCC[C@](C)(O[C@@H]1O[C@H](CO)[C@@H](O)[C@H](O)[C@H]1O)[C@H]1CC[C@]2(C)[C@@H]1[C@H](O)C[C@@H]1[C@@]3(C)CC[C@H](O)C(C)(C)[C@@H]3CC[C@]12C,-2.09%
CCCN1C[C@H](CSC)C[C@@H]2c3cccc4[nH]cc(c34)C[C@H]21,-1.69%
CCOC(=O)[C@@H](N)Cc1ccc(O)c(O)c1,-1.44%
Cc1ccc(Nc2c(F)cccc2Cl)c(CC(=O)O)c1,1.7%
CCCc1ncc(C[n+]2ccccc2C)c(N)n1,-2.27%
NC(=O)c1ncn([C@@H]2O[C@H](CO)[C@@H](O)[C@H]2O)c1N,-1.82%
C=CCOC(Cn1ccnc1)c1ccc(Cl)cc1Cl (stereo not shown),-5.51%
Cc1ccc(S(=O)(=O)n2c(N)nc3ccccc32)cc1,-2.56%
NC(=O)c1cccc2cn(-c3ccc([C@@H]4CCCNC4)cc3)nc12,11.6%
NC/C(=C/F)CCc1ccc(F)cc1,-0.38%
Cc1ccc(C(=O)Nc2cccc(C(F)(F)F)c2)cc1Nc1nc(-c2cccnc2)nc2c1cnn2C,-12.3%
CCOC(=O)c1ccc(N(C)c2csc(-c3ccccc3)n2)cc1,1.47%
CC(C)n1nnc2cc(C(=O)O)ccc21,-0.87%
CC(C)NCCCn1c(Sc2cc3c(cc2I)OCO3)nc2c(N)ncnc21,2.31%
CC(=O)Nc1ccc(S(=O)(=O)c2ccc(NC(C)=O)cc2)cc1,-1.74%
CCC(=O)O[C@]1(C(=O)CCl)[C@@H](C)C[C@H]2[C@@H]3CCC4=CC(=O)C=C[C@]4(C)[C@@]3(F)[C@@H](O)C[C@@]21C,2.65%

# Sample 6
# Target: Replicase polyprotein 1ab, main protease (rep, Severe acute respiratory syndrome coronavirus 2, UniProt P0DTD1)
# Read-out: enzyme activity
# Action: inhibitor
# Concentration: 20 µM
# Notes: primary screen
SMILES,inhibition [%]
CC/C=C(\C(=O)N[C@@H]1C(=O)N2C(C(=O)OCOC(=O)C(C)(C)C)=C(COC(N)=O)CS[C@H]12)c1csc(N)n1,32.7
CO[C@H]1C([C@@]2(C)O[C@@H]2CC=C(C)C)[C@]2(CC[C@H]1OC(=O)/C=C/C=C/C=C/C=C/C(=O)O)CO2 (stereo partly shown),45.3
O=[N+]([O-])c1ccc2c(c1)S(=O)(=O)C=C2,38
COc1cc(N(C)C)cc(CN(C)CCc2ccc([N+](=O)[O-])cc2)c1O,93.4

# Some of these lines once more (sample 5):
Compound,inhibition
CCOC(=O)c1ccc(NC2CCCCC2)c(N)c1,-3.16%
O=C1OC2(c3ccc(O)cc3Oc3cc(O)ccc32)c2ccccc21,236%
CC(C)(C)c1ccc(C(O)CCCN2CCC(C(O)(c3ccccc3)c3ccccc3)CC2)cc1 (stereo not shown),-0.39%
Cc1ccsc1C(=CCCN1CCC[C@@H](C(=O)O)C1)c1sccc1C,-1.88%
CC(C)=CCC[C@](C)(O[C@@H]1O[C@H](CO)[C@@H](O)[C@H](O)[C@H]1O)[C@H]1CC[C@]2(C)[C@@H]1[C@H](O)C[C@@H]1[C@@]3(C)CC[C@H](O)C(C)(C)[C@@H]3CC[C@]12C,-2.09%
